Results pooled from the literature.
Compare with care: the assays were run in different laboratories. ± gives the spread as reported.

SMILES | organism | test | test system | conditions | IC50
CS(=O)(=O)c1ccc(-c2cnc(N)c(-c3ccc(C(F)(F)F)nc3)c2)cc1 | Plasmodium cynomolgi | hypnozoite (small EEF) growth | primary rhesus hepatocytes | day 4, compound added at 96 h | 7 µM
COc1ccccc1NC(=O)c1ccccc1Sc1ccccc1 | Human immunodeficiency virus 1 | viral replication | MT4 | 7 days | > 100 µM
O=[N+]([O-])c1ccc(/C=N/N=C/c2ccccc2)o1 | Leishmania major | parasite growth |  | intracellular, amastigote | > 7 µM
O=C(CCCCCCC(=O)Nc1ccc([C@H]2O[C@@H](CSc3nc(-c4ccccc4)c(-c4ccccc4)o3)C[C@@H](c3ccc(CO)cc3)O2)cc1)NO | Lucilia cuprina | larval weight gain | LS strain, larvae on impregnated cotton wool | 24 h | > 1000 µg
O=C(Nc1ccccc1O)c1ccccc1Sc1ccc([N+](=O)[O-])cc1 | Human immunodeficiency virus 1 | viral replication | MT4 | 7 days | 50 µM
C#CCn1cc(C=O)c2cc([N+](=O)[O-])ccc21 | Trypanosoma congolense |  | trypomastigotes, IL3000 |  | > 110 µM
COc1nc2c([N+](=O)[O-])cccc2cc1-c1ccc(C(=O)O)cc1 | Trypanosoma brucei | parasite growth, resazurin |  | 74 h, trypomastigote | 2.2 µM
COc1ccc(-c2nc(N3CCOCC3)c3sc(CN(C)c4ncc(C(=O)NO)cn4)cc3n2)cn1 | Lucilia cuprina | larval weight gain | LS strain, larvae on impregnated cotton wool | 24 h | 12.2 µg
CCC(C)N1CCC(c2ccc(Nc3ccnc4cc(Cl)ccc34)cc2)CC1 (stereo not drawn) | Plasmodium falciparum | parasite growth, SYBR Green | DD2 | 72 h, drug-resistant strain, blood stage | 0.009 µM
Cc1ccc(Cn2cc(/C=N/N3C(=O)CSC3=S)c3cc([N+](=O)[O-])ccc32)cc1 | Trypanosoma congolense |  | trypomastigotes, IL3000 |  | > 58 µM
FC(F)(F)Oc1ccc(-c2cnc3cc(Cl)ccc3c2Nc2ccc(N3CCOCC3)cc2)cc1 | Plasmodium falciparum | parasite growth, SYBR Green | DD2 | 72 h, drug-resistant strain, blood stage | ≥ 0.25 µM
C=C1C[C@@]23CC[C@H]4[C@@](C)(CCC[C@@]4(C)C(=O)O)[C@@H]2CC[C@@H]1C3 | Leishmania amazonensis |  |  | 72 h, pH 4.6, axenic amastigotes | 4 µg/mL
O=c1c(O)c(-c2cc(O)c(O)c(O)c2)oc2cc(O)cc(O)c12 | human alphaherpesvirus 2 | viral replication | HEp-2, 333 | 24 h | 3.5 ± 0.4 µM
O=C1CSC(=S)N1/N=C/c1cn(Cc2cccc(Cl)c2)c2ccc([N+](=O)[O-])cc12 | Leishmania major | parasite growth, resazurin | THP-1 | 72 h, intracellular, amastigote | > 10 µM
CCCN1CCC(c2ccc(Nc3ccnc4cc(Cl)ccc34)cc2)CC1 | Plasmodium falciparum | parasite growth, SYBR Green | DD2 | 72 h, drug-resistant strain, blood stage | 0.015 µM
O=C1NC(=S)S/C1=C\c1cn(Cc2ccc(F)cc2)c2ccc([N+](=O)[O-])cc12 | Leishmania major | parasite growth, resazurin | THP-1 | 24 h, intracellular, amastigote | > 10 µM
CCS(=O)(=O)Nc1ccc(NC(=O)c2cc(C(F)(F)F)cc(C(F)(F)F)c2)cc1F | Trypanosoma brucei brucei | cell growth | Lister 427 | 48 h | ~8 µM
O=C1CSC(=S)N1/N=C/c1cn(Cc2ccc(F)cc2)c2ccc([N+](=O)[O-])cc12 | Leishmania major | parasite growth, resazurin | THP-1 | 24 h, intracellular, amastigote | > 10 µM
O=C(Cc1ccccc1F)Nc1ccccc1Sc1ccc([N+](=O)[O-])cc1 | Human immunodeficiency virus 1 | viral replication | MT4 | 7 days | > 100 µM
CCCCc1nc2cc(/C=C/C(=O)NO)ccc2n1CCN(CC)CC | Lucilia cuprina | larval weight gain | LS strain, larvae on impregnated cotton wool | 24 h | 302 µg
O=Cc1c[nH]c2ccc([N+](=O)[O-])cc12 | Leishmania major | parasite growth, resazurin | THP-1 | 72 h, intracellular, amastigote | > 10 µM

For quick reference, copied from above:
SMILES | organism | test | test system | conditions | IC50
O=[N+]([O-])c1ccc(/C=N/N=C/c2ccccc2)o1 | Leishmania major | parasite growth |  | intracellular, amastigote | > 7 µM
O=C(CCCCCCC(=O)Nc1ccc([C@H]2O[C@@H](CSc3nc(-c4ccccc4)c(-c4ccccc4)o3)C[C@@H](c3ccc(CO)cc3)O2)cc1)NO | Lucilia cuprina | larval weight gain | LS strain, larvae on impregnated cotton wool | 24 h | > 1000 µg
